Measured values collected from several papers.
Lines come from different studies, so protocols differ. Several values in a cell are separate wells, animals, samples, runs or records. ± gives the spread as reported.

SMILES | cell line | test | setting | scale | measurement | value
CCn1cc(-c2cc(Cn3ccnc3)cc3c2CCN([C@H](c2cc(OC)ccn2)C2CC2)C3=O)c(C(F)(F)F)n1 | HCC1833 | cell growth | 120 h | – | EC50 | > 30 µM
Cc1nn(CC(F)(F)F)cc1Nc1ncc(Br)c(NCc2ccc(S(N)(=O)=O)cc2)n1 | THP1-Dual | western blot | 20 µM, separate blot, with: HT-DNA | reference: DMSO | phospho-TBK1 to TBK1 ratio | 0.552 and 0.657 and 0.501
Nc1ncnc2c1ncn2[C@@H]1O[C@H](COP(=O)(O)O)[C@@H](O)[C@H]1O | MDA-MB-231 BAX/BAK siRNA knockdown | cell viability, CellTiter-Glo | – | direction not given | Z score | 1.49
CC/C(=N\NC(=O)C(C)Nc1ccccc1)c1ccc(O)c(C)c1O (centres unmarked) | SK-OV-3 | Western blot | 10 µM, 6 h, 2D culture, unit not given | reference: DMSO | TAZ band intensity | 0.34 ± 0.05
Cc1cnc(NC2CCOCC2)nc1-n1cnc(C(=O)NC(CN)c2cc(F)cc(Cl)c2)c1 (centres unmarked) | MINO | flow cytometry | 1 µM, 72 h | – | G2 phase cells | 4%
CCCCC[C@H](O)/C=C/[C@H]1C(=O)C[C@H](O)[C@@H]1C/C=C\CCCC(=O)O | HEK293-A2AR cells, SLCO2A1 knockout | HTRF cAMP | 500 µM | – | HTRF cAMP signal | 330 a.u. and 321 a.u. and 328 a.u.
CCOC(=O)C1=C(C)NC2=C(C(=O)OC(c3ccc(Cl)c(OC)c3)C2)C1c1ccccc1Cl (mixture of isomers) | J774.A1 | cytotoxicity | – | – | EC50 | > 20 µM
C[C@H](Nc1ccc2c(c1)OCCn1cc(N3C(=O)OC[C@H]3C(F)F)nc1-2)C(N)=O | AGS | CellTiter-Glo | 120 h | – | Hill coefficient | 1.14
CCOC(=O)C1=C(C)NC2=C(C(=O)CC(c3cc(OC)c(OC)c(OC)c3)C2)C1c1ccccc1Cl (mixture of isomers) | J774.A1 | cytotoxicity | – | – | EC50 | > 20 µM
O=C(C[C@@H](C(F)F)n1ccc(F)n1)N1CCC(O)(Cn2cnc3c(cnn3-c3ccc(F)cc3)c2=O)CC1 | CHP-212 resistant | PI flow cytometry | 0.3 µM, 24 h | – | G1 phase cells | 73.1%
CCCCc1oc2ccc(NS(C)(=O)=O)cc2c1C(=O)c1ccc(OCCCN(CCCC)CCCC)cc1 | human embryonic stem cell aggregates | mRNA level, microarray, measured: CYP26A1 | 0.5 µM, 120 h | reference: untreated, down-regulated | fold change | 2.3 fold
CCn1cc(-c2cc(Cn3ccoc3=N)cc3c2CCN([C@@H](C)c2cc(OC)ccn2)C3=O)c(C(F)(F)F)n1 | AGS | cell growth, inhibitor | 120 h | – | EC50 | > 30 µM
Clc1nc(NCc2ccco2)c2[nH]cnc2n1 | iPSC-derived cardiomyocytes | RNA-seq, measured: chr16 exon ending 29454113 | unit not given | reference: DMSO minus compound | ΔPSI | -0.21
O=P(O)(O)C(O)(Cn1ccnc1)P(=O)(O)O | hFOB 1.19 | AlamarBlue | 15 µM, 24 h | reference: control | viability | 99 ± 1%
CC(C)=CCNc1ncnc2c1ncn2[C@@H]1O[C@H](CO)[C@@H](O)[C@H]1O | mock-transfected cells | TGFα shedding, agonist | 10 nM | reference: unstimulated vehicle control | AP-TGFα release | 0.06% and 0.32% and -0.16%
Cc1nn(-c2nc3c(F)cc(F)cc3s2)c(O)c1C(c1cccc(C(F)(F)F)c1)c1c(C)nn(-c2nc3c(F)cc(F)cc3s2)c1O | THP1-Dual | IFN luciferase reporter | 80 µM, with: HT-DNA | – | inhibition | 101%
CC(C)(C)c1ccc(C(O)CCCN2CCC(C(O)(c3ccccc3)c3ccccc3)CC2)cc1 (centres unmarked) | MDA-MB-231 BAX/BAK siRNA knockdown | cell viability, CellTiter-Glo | – | direction not given | Z score | -1.14
CC(C)C[C@@H](C=O)NC(=O)[C@H](CC(C)C)NC(=O)[C@H](CC(C)C)NC(=O)OCc1ccccc1 | BRD4-HiBiT cells | BRD4 degradation rescue, inhibitor | 24 h, with: dBET6 500 nM | – | EC50 | 0.144 µM
CC(C)(c1ccc(O)cc1)c1ccc(O)cc1 | HepG2 spheroids | planimetry | 10 µM, 0 to 24 h | reference: mean area of 72 h spheroids | spheroid area increase | 121%
CCCCN1C[C@H](O)[C@@H](O)[C@@H](O)[C@H]1CO | sample C patient fibroblasts | Gb3 level lowering, LC-MS/MS, measured: Gb3 d18:1/24:1 | 216 h | – | IC50 | 4.5 µM
CC(=O)c1nn(-c2ccc(Cl)cc2)/c(=N/N=C(\C)c2ccc(NC(=O)c3ccc(C)cc3)cc2)s1 | HepG2 | – | 10 µM | – | viability | 2.54%
COc1ccc(NC(=S)N/N=C/c2cccc3cc4ccccc4nc23)cc1 | HeLa | PI flow cytometry | IC50, 48 h, with: N-acetylcysteine | – | cells in S phase | 30.9%
C[C@@H](O)[C@H](NC(=O)Nc1ncnc2c1ncn2[C@@H]1O[C@H](CO)[C@@H](O)[C@H]1O)C(=O)O | mock-transfected cells | TGFα shedding, agonist | 10 µM | reference: unstimulated vehicle control | AP-TGFα release | 0.92% and -0.794% and 0.191%
C=Cc1c2[n-]c(c1C)/C=c1\[n-]/c(c(C)c1C=C)=C\c1[n-]c(c(CCC(=O)O)c1C)/C=c1\[n-]c(c(C)c1CCC(=O)O)=C2.[Sn+4] | SH-SY5Y | RNA-seq, measured: CD274 mRNA | 5 µM, 5 h | reference: untreated cells | fold change | 2.84
CC(C)C[C@H](NC(=O)CNC(=O)c1cc(Cl)ccc1Cl)B(O)O | BRD4-HiBiT cells | BRD4 degradation rescue, inhibitor | 24 h, 50% degradation rescued, with: dBET6 500 nM | – | EC50 | 0.0373 µM

SMILES | cell line | test | setting | scale | measurement | value
CC(C)NCC(O)c1ccc(O)c(O)c1 (centres unmarked) | mouse ventricular cardiomyocytes | – | dose not given, 0.12 s | – | sarcomere length | 1.64 µm
CCN1CCN(Cc2ccc(NC(=O)c3ccc(C)c(-c4ccc5nc(NC(=O)C6CC6)cn5c4)c3)cc2C(F)(F)F)CC1 | persistent SET-2 | Western blot | 1 µM, 4 h | – | pSTAT3 level | decreased
COC(=O)C1=C(C)NC2=C(C(=O)OC(c3ccc(OC)c(OC)c3)C2)C1c1ccccc1Cl (centres unmarked) | J774.A1 | cytotoxicity | – | – | EC50 | > 20 µM
CC#CC(=O)N1CCC[C@H]1c1nc(-c2ccc(C(=O)Nc3ccccn3)cc2)c2c(N)nccn12 | TMD8 | calcium flux, FLIPR | 4 h preincubation, with: anti-IgM | – | maximum inhibition | 47.4%
Cc1cc(Nc2ncc(Cl)c(Nc3ccccc3S(=O)(=O)C(C)C)n2)c(OC(C)C)cc1C1CCNCC1 | CLB-GE | phosphoproteomics LC-MS/MS, measured: RECQL4 phosphorylation | 200 nM, 60 min | reference: untreated | log2 fold change | -2.36
CCCCc1nc2c(N)nc3ccccc3c2n1Cc1ccc(CN)cc1 | human PBMC | ELISA | concentration not given | reference: resiquimod | IFN-α induction | ~10 fold
Cn1cc(-c2ccc(-c3cncc(Cl)c3N3CCC4(CCNC4=O)CC3)cc2)cn1 | COLO 205 | gene expression, microarray, measured: SLC8A1 mRNA | concentration not given, 2 h | reference: untreated cells | log2 fold change | 2.4
Cl.FC(F)(F)Oc1ccc(Nc2ccc3ncc(OCC4CCNCC4)nc3c2)cc1 | MOLM-13 | RT-qPCR, measured: Meis1, Myc | 0.3 and 1 µM, 3 days | – | mRNA level | no effect
Cn1cc(Nc2nccc(-c3ccc4c(c3)CN(C3COC3)CC[C@H]4NC(=O)c3cn(C(C)(C)C)nn3)n2)cn1 | mouse splenic B cells | measured: SAPK/JNK signalling | 30 mg/kg, IgD-activated in vivo | reference: vehicle, direction not given | pathway activation z-score | 2.18
COc1cnc2cccc(N3CCc4c(cc(Cn5ccnc5C)cc4-c4cn(C)nc4C(F)(F)F)C3=O)c2c1 | OVK18 | cell growth, inhibitor | 120 h | – | EC50 | 10.5 µM
NCCCOc1cc(NC(=O)c2cc(Cl)cc(C(=O)Nc3cc(OCCCN)c4ccccc4n3)n2)nc2ccccc12 | HT-1080 | cell viability, CellTiter-Glo | 72 h | reference: IC50 HT-1080 over WI-38 | selectivity ratio | 1
c1ccc2[nH]ccc2c1 | HCT-8 | RNA-seq, measured: ULBP1 | concentration not given | – | mRNA level, LS mean | 13.2 counts per million
C[C@H]1CN(C2COC2)CCN1c1ccc(Nc2cc(-c3ccnc(N4CCn5c(cc6c5CC(C)(C)C6)C4=O)c3CO)cn(C)c2=O)nc1 | TMD8 | calcium flux, FLIPR | 2 h preincubation, with: anti-IgM | – | IC50 | 0.0136 µM
CCOC(=O)C1=C(C)NC2=C(C(=O)CC(c3ccc(Cl)c(OC)c3)C2)C1c1ccc(Cl)cc1C (centres unmarked) | J774.A1 | cytotoxicity | – | – | EC50 | > 20 µM
Cc1nn(-c2nc3c(F)cc(F)cc3s2)c(O)c1C(c1ccccc1C(=O)O)c1c(C)nn(-c2nc3c(F)cc(F)cc3s2)c1O | THP1-Dual | IFN luciferase reporter | 20 µM, with: HT-DNA | – | inhibition | 24.8% and 30.8% and 21.2%
CC[C@H](C)[C@H](NC(=O)[C@H](C)NC(=O)CNC(=O)[C@H](Cc1ccccc1)NC(=O)[C@H](CC(N)=O)NC(=O)[C@H](CC(N)=O)NC(=O)[C@H](CO)NC(=O)[C@H](CO)NC(=O)[C@H](Cc1c[nH]cn1)NC(=O)[C@@H](NC(=O)[C@H](CC(C)C)NC(=O)[C@H](Cc1ccccc1)NC(=O)[C@H](CC(N)=O)NC(=O)[C@H](C)NC(=O)[C@H](CC(C)C)NC(=O)[C@H](CCCNC(=N)N)NC(=O)[C@H](CCC(N)=O)NC(=O)[C@@H](NC(=O)[C@H](C)NC(=O)[C@@H]1CSSC[C@H](NC(=O)[C@@H](N)CCCCN)C(=O)N[C@@H](CC(N)=O)C(=O)N[C@@H]([C@@H](C)O)C(=O)N[C@@H](C)C(=O)N[C@@H]([C@@H](C)O)C(=O)N1)[C@@H](C)O)C(C)C)C(=O)N[C@@H](CC(C)C)C(=O)N[C@@H](CO)C(=O)N[C@@H](CO)C(=O)N[C@H](C(=O)N[C@@H](CC(N)=O)C(=O)N[C@H](C(=O)NCC(=O)N[C@@H](CO)C(=O)N[C@@H](CC(N)=O)C(=O)N[C@H](C(=O)N[C@@H](Cc1ccc(O)cc1)C(N)=O)[C@@H](C)O)C(C)C)[C@@H](C)O | INS-1 | flow cytometry | 1 µM, unit not given | reference: control | intracellular ROS level | 6.33
COc1cc(N2CCC(N3CCN(C)CC3)CC2)ccc1Nc1ncc(Cl)c(Nc2ccccc2P(C)(C)=O)n1 | Aska-SS (ALK exon 2-17 deletion) | cell viability | – | – | Emax | 80%
NS(=O)(=O)OC[C@H]1C[C@@H](Nc2ccnc3cc(-c4cccc(SC(F)(F)F)c4)nn23)[C@H](O)[C@@H]1O | BRD4-HiBiT cells | BRD4 degradation rescue, inhibitor | 4 h, 50% degradation rescued, with: dBET6 500 nM | – | EC50 | 0.379 µM
Nc1ncnc2c1ncn2[C@@H]1O[C@H](CO)[C@@H](O)[C@H]1O | activated human T cells | – | 3.16 µM | higher = more TNF | TNF production | 3830 a.u. and 2970 a.u. and 3540 a.u.
Cn1c(Nc2nc3ccc(C(F)(F)F)cc3s2)nc2cc(C(=O)NCCOCCO)ccc21 | SH-SY5Y | RNA-seq, measured: PTX3 mRNA | 5 µM, 5 h | reference: untreated cells | fold change | 2.23
O=C(/C=C/C=C/C=C/C1CCCCC1)NC1=C[C@@](O)(/C=C/C=C/C=C/C(=O)NC2=C(O)CCC2=O)[C@@H]2O[C@@H]2C1=O | NCI-H1650 | cell growth, CellTiter-Glo | 78 h | – | GI50 | 11.6 µM
CC(C)C[C@H](NC(=O)[C@H](Cc1ccccc1)NC(=O)c1cnccn1)B(O)O | BRD4-HiBiT cells | BRD4 degradation rescue, inhibitor | 4 h, with: dBET6 500 nM | – | EC50 | 0.121 µM
Cc1ccc2c(c1)C(=O)[C@]1(O)CCN(c3ccc4nc(C)ccc4c3)C1=N2.Cl | murine Trp53-/- cells | Western blot, measured: cleaved PARP and γH2AX | concentration not given | – | protein level | increased
Nc1cccc2c1C(=O)N(C1CCC(=O)NC1=O)C2=O (centres unmarked) | RPMI-8226 | flow cytometry, measured: CD151 | concentration not given | reference: comparator compound alone | surface marker level | 201%
CC/C(=N\NC(=O)NCc1cccc(O)c1)c1ccc(O)c(C)c1O | SK-OV-3 | gene expression, microarray, measured: LAPTM5 | 10 µM, 24 h | reference: DMSO | log ratio | -3.8

Some of these lines once more:
SMILES | cell line | test | setting | scale | measurement | value
Cn1cc(-c2ccc(-c3cncc(Cl)c3N3CCC4(CCNC4=O)CC3)cc2)cn1 | COLO 205 | gene expression, microarray, measured: SLC8A1 mRNA | concentration not given, 2 h | reference: untreated cells | log2 fold change | 2.4
CCCCc1oc2ccc(NS(C)(=O)=O)cc2c1C(=O)c1ccc(OCCCN(CCCC)CCCC)cc1 | human embryonic stem cell aggregates | mRNA level, microarray, measured: CYP26A1 | 0.5 µM, 120 h | reference: untreated, down-regulated | fold change | 2.3 fold
Nc1cccc2c1C(=O)N(C1CCC(=O)NC1=O)C2=O (centres unmarked) | RPMI-8226 | flow cytometry, measured: CD151 | concentration not given | reference: comparator compound alone | surface marker level | 201%
c1ccc2[nH]ccc2c1 | HCT-8 | RNA-seq, measured: ULBP1 | concentration not given | – | mRNA level, LS mean | 13.2 counts per million
CC(C)C[C@@H](C=O)NC(=O)[C@H](CC(C)C)NC(=O)[C@H](CC(C)C)NC(=O)OCc1ccccc1 | BRD4-HiBiT cells | BRD4 degradation rescue, inhibitor | 24 h, with: dBET6 500 nM | – | EC50 | 0.144 µM
